Measurements collected from several papers.
Compare with care: the assays were run in different laboratories. ± gives the spread as reported. Values after ≈ are worked out from the molar mass of the structure shown.

Substance	assay	test system	setting	scale	measurement	value
CC(=O)N[C@@H](CSC(Cl)=CCl)C(=O)O	histopathology	Sprague-Dawley rats, male, kidney	ip, 230 µmol/kg, 24 h	relative to: region	necrotic proximal tubules	> 75%
CNC(=O)c1ccc(-c2cnn3ccc(C(=O)N(C)c4ccc(Cl)c(C(=O)OC)c4)cc23)cc1		neonatal calf, infected, with diarrhoea, plasma	oral, 10 mg/kg, 0 to 12 h		AUC(0-t)	0.147 µM·h
COc1cccc2c1cc([N+](=O)[O-])c1c(C(=O)O)cc3c(c12)OCO3		Sprague-Dawley rat, male, isolated perfused kidney	50 µM, kidney A		renal clearance	0.00142 mL/min
CS(=O)(=O)CCCn1c(Cn2c(=O)n(CC(F)(F)F)c3ccncc32)cc2cc(Cl)ccc21		RSV-infected infants	dose not given, mid dose cohorts		serious adverse events	8%
O=C(O)C(F)(F)C(F)(F)C(F)(F)C(F)(F)C(F)(F)C(F)(F)C(F)(F)F	LC-MS	C57BL/6J mouse male, plasma	drinking water, 2 mg/L each PFAS, 12 weeks		plasma concentration	7300 ng/mL
CCCCCOc1ccc(-c2cc(-c3ccc(C(=O)N[C@H]4C[C@@H](O)[C@@H](O)NC(=O)[C@@H]5[C@@H](O)[C@@H](C)CN5C(=O)[C@H]([C@H](O)CC(N)=O)NC(=O)[C@H]([C@H](O)[C@@H](O)c5ccc(O)c(OS(=O)(=O)O)c5)NC(=O)[C@@H]5C[C@@H](O)CN5C(=O)[C@H]([C@@H](C)O)NC4=O)cc3)no2)cc1		preterm neonates, whole cohort, plasma	intravenous, 15 mg/kg/day, repeated dosing, mean		clearance	0.575 mL/min/kg
Cc1cccc2c1ccc1cc(C(C)C)ccc12		zebrafish embryos, whole fish tissue	waterborne, 30 µM, 24 hpf, 1% DMSO		internal concentration	~500 µM
ClC(Cl)(Cl)Cl		Sprague-Dawley rat, male, liver	oral, 50 mg/kg, 6 h, single low dose	direction not given	hepatocyte vacuolization score	0
CC(C)c1nc(N(C)S(C)(=O)=O)nc(-c2ccc(F)cc2)c1/C=C/[C@@H](O)C[C@@H](O)CC(=O)O		healthy volunteers, plasma	oral, dose not given, with: 2D regimen		AUC	30.7 ng·h/mL
CCCCCOc1ccc(-c2ccc(-c3ccc(C(=O)N[C@H]4C[C@@H](O)[C@@H](O)NC(=O)[C@@H]5[C@@H](O)[C@@H](C)CN5C(=O)[C@H]([C@@H](C)O)NC(=O)[C@H]([C@H](O)[C@@H](O)c5ccc(O)cc5)NC(=O)[C@@H]5C[C@@H](O)CN5C(=O)[C@H]([C@@H](C)O)NC4=O)cc3)cc2)cc1	population PK model	patients aged sample A to < sample B years	intravenous, 200 mg loading, 100 mg once daily, median, weight-corrected		clearance	0.283 mL/min/kg
CSCC[C@@H]1NC(=O)[C@H](CC(=O)O)NC(=O)CNC(=O)[C@H](CCCNC(=N)N)NC(=O)[C@H](C)NC(=O)[C@H](CCC(=O)O)NC(=O)[C@H](CCCNC(=N)N)NC(=O)[C@@H]2CSSC[C@@H]3NC(=O)[C@H](CO)NC(=O)[C@H]([C@@H](C)O)NC(=O)[C@@H]4CCCN4C(=O)[C@H](C)NC(=O)[C@H](Cc4c[nH]c5ccccc45)NC(=O)[C@H](CC(=O)O)NC(=O)CNC(=O)[C@H](CCCNC(=N)N)NC(=O)CNC(=O)[C@H](CCC(N)=O)NC(=O)[C@@H]4CCCN4C(=O)[C@@H](NC(=O)CNC(=O)C(C)F)CSSC[C@H](NC(=O)CNC(=O)[C@H](C)NC(=O)[C@H](CC(C)C)NC(=O)[C@H](CSSC[C@@H](C(=O)NCC(N)=O)NC(=O)[C@H]([C@@H](C)O)NC(=O)[C@H](CCCNC(=N)N)NC(=O)[C@@H]4CCCN4C1=O)NC(=O)[C@H](CC(=O)O)NC(=O)[C@H](CO)NC(=O)[C@H](CC(=O)O)NC(=O)[C@H](CCC(N)=O)NC(=O)[C@H](CO)NC3=O)C(=O)N[C@@H](C(C)C)C(=O)N2 (some centres unmarked) [fluorine-18 labelled]		nude mice U-87 MG xenograft, spleen	intravenous, 0.5 h		tissue uptake	0.88 ± 0.06 %ID/g
O[C@H]1CCCN[C@@H]1CCCn1cnc2c(Cl)c(Cl)ccc21		healthy volunteers, urine	oral, 500 mg tablet single, geometric mean		renal clearance (0-72 h)	1510 mL/min
CCCCCCCCCCCCCC[N+](C)(C)C	in vitro-in vivo extrapolation	human			hepatic clearance	0.505 mL/h/g liver
O=C(OC(C(F)(F)F)C(F)(F)F)N1CCC(CCn2cnc3ccccc32)CC1		PBS	20 h, pH 7.4, 20 °C		solubility	6 µg/mL
CC(=O)N[C@H](CCCCNC(=O)C(C)F)C(=O)N[C@@H](CS)C(=O)N[C@@H](CS)C(=O)N[C@@H](CCC(=O)O)C(=O)N[C@@H](Cc1c[nH]cn1)C(=O)N[C@H](Cc1ccccc1)C(=O)N[C@@H](CCCNC(=N)N)C(=O)N[C@@H](Cc1c[nH]c2ccccc12)C(=O)N[C@@H](CS)C(=O)N[C@@H](CCCNC(=N)N)C(=O)N1CCC[C@H]1C(=O)N[C@H](C(N)=O)C(C)C (some centres unmarked) [fluorine-18 labelled]		male C57BL/6 mice, B16-F10 tumour, kidney	intravenous, 2 h		kidney uptake	6.76 ± 0.82 %ID/g
NC(=O)c1nc(F)c[nH]c1=O	UV-Vis spectrophotometry	supercritical CO2	120 min, 328 K, 12 MPa, 506.85 kg/m^3		solubility	15 µg/mL

Substance	assay	test system	setting	scale	measurement	value
Cc1cnc(C(=O)N[C@H]2CCCCC/C=C\[C@@H]3C[C@@]3(C(=O)NS(=O)(=O)C3CC3)NC(=O)[C@@H]3C[C@@H](Oc4nc5ccccc5c5ccccc45)CN3C2=O)cn1		healthy human volunteers, plasma	oral, dose not given, with: warfarin plus 2D regimen		AUC(0-24)	5870 ng·h/mL
C=C1C(=O)O[C@@H]2[C@H]1CC[C@H](C)[C@@]1(O)C=CC(=O)[C@@]21C	propidium iodide flow cytometry	primary splenocytes, BALB/c mouse	48 h, 10% fetal calf serum		CC50	1.2 ± 0.8 µg/mL (≈ 4.57 µM)
CCCCCOc1ccc(-c2cc(-c3ccc(C(=O)N[C@H]4C[C@@H](O)[C@@H](O)NC(=O)[C@@H]5[C@@H](O)[C@@H](C)CN5C(=O)[C@H]([C@H](O)CC(N)=O)NC(=O)[C@H]([C@H](O)[C@@H](O)c5ccc(O)c(OS(=O)(=O)O)c5)NC(=O)[C@@H]5C[C@@H](O)CN5C(=O)[C@H]([C@@H](C)O)NC4=O)cc3)no2)cc1		young infants, plasma	intravenous, 7 and 10 mg/kg/day pooled, day 4, median, repeat dosing		clearance at steady state	0.5 mL/min
CN(C)C(=O)C(CCN1CCC(O)(c2ccc(Cl)cc2)CC1)(c1ccccc1)c1ccccc1		rat	no efflux inhibition		log intrinsic permeability	-3.64
CC(C)c1nc(CN(C)C(=O)N[C@H](C(=O)N[C@@H](Cc2ccccc2)C[C@H](O)[C@H](Cc2ccccc2)NC(=O)OCc2cncs2)C(C)C)cs1	in situ brain perfusion	CF-1 mouse, wild type, male	1 µM, pH 7.4		brain uptake clearance Kin	1.8 mL/100 g/min
COc1ccc(-c2cc(=O)c3c(OC)c(OC)c(OC)c(OC)c3o2)cc1OC		C57BL/6 mouse, male, small intestine	oral, 1% w/w in diet, 6 weeks, orange peel extract diet	relative to: content in orange peel	tissue to peel content ratio	2.65%
COc1ccc(Nc2ccc3c(c2)C(c2ccccc2F)=NC(C)C(=O)N3)cc1 (centres unmarked)	shake flask	PBS	24 h, pH 7.4		solubility	< 1 µM
[123I]c1cncc(OC[C@@H]2CCN2)c1	SPECT	human, head of caudate nucleus	intravenous bolus, 7.35 mCi	relative to: tissue over plasma	tissue/plasma ratio	34
CCCCCCCCCCCC[N+](C)(C)C	in vitro-in vivo extrapolation	human			hepatic clearance	0.114 mL/h/g liver
CC[C@H](C)[C@H](NC(=O)[C@H](CCC(=O)O)NC(=O)[C@@H](NC(=O)[C@H](CC(=O)O)NC(=O)[C@H](CC(C)C)NC(=O)[C@H](C)NC(=O)[C@H](CCSC)NC(=O)[C@H](CCCCN)NC(=O)[C@@H](NC(=O)[C@H](CC(N)=O)NC(=O)[C@H](CC(C)C)NC(=O)[C@H](CC(C)C)NC(=O)[C@H](CC(=O)O)NC(=O)[C@H](CCC(N)=O)NC(=O)[C@H](Cc1ccc(O)cc1)NC(=O)[C@H](CCC(=O)O)NC(=O)[C@H](CCCNC(=N)N)NC(=O)[C@H](CCC(=O)O)NC(=O)[C@H](CC(C)C)NC(=O)[C@H](CCCNC(=N)N)NC(=O)[C@H](C)NC(=O)[C@H](CC(C)C)NC(=O)[C@H](CCC(=O)O)NC(=O)[C@@H](N)CCC(=O)O)C(C)C)[C@@H](C)CC)C(=O)N[C@@H](C)C(=O)N[C@H](C(=O)N[C@@H](Cc1ccc(O)cc1)C(=O)N[C@@H](CCCNC(=N)N)C(=O)N[C@@H](CCCCN)C(=O)N[C@@H](CC(C)C)C(=O)N[C@@H](CC(C)C)C(=O)N[C@@H](CCC(=O)O)C(=O)N[C@@H](C)C(=O)N[C@@H](CC(C)C)C(=O)N[C@@H](CCC(=O)O)C(=O)N[C@@H](CO)C(=O)N[C@@H](CCCNC(=N)N)C(=O)O)[C@@H](C)O	dynamic light scattering	Tris-HCl buffer with NaCl	1 mg/ml, pH 7.5, 25 °C		hydrodynamic diameter	~540 nm
CN[C@@](C)(C[18F])C(=O)O		SCID mouse A549 xenograft, heart	120 min, post injection		tissue uptake	3.7 ± 0.6 %ID/g
amyloid beta-42 Met35-sulfone	electron microscopy	sodium phosphate buffer	10 µM, pH 7.4, 25 °C, agitation 200 rpm		time to fibril formation	24 h
CC[C@H](C)[C@H](NC(=O)[C@@H](N)CCCNC(=N)N)C(=O)N[C@H](C(=O)N1CCC[C@H]1C(=O)N[C@@H](C)C(N)=O)C(C)C		healthy volunteers, both sexes, plasma	intravenous infusion, 4.5 mg/kg daily, day 7, multiple ascending dose		Tmax	5 ± 1.1 min
Oc1cccc2ccccc12	fish short-term reproduction	Oryzias latipes, female, water, flow-through	258 µg/L, end of exposure		body weight	697 ± 43 mg
CC[C@H](C)[C@H](NC(=O)[C@H](CCCCN)NC(=O)[C@H](CCCCN)NC(=O)[C@H](CC(C)C)NC(=O)[C@@H](NC(=O)[C@H](CCCCN)NC(=O)[C@H](C)NC(=O)[C@H](C)NC(=O)[C@@H](NC(=O)CNC(=O)[C@H](C)NC(=O)[C@@H](NC(=O)[C@H](CCCCN)NC(=O)[C@@H]1CCCN1C(=O)[C@H](Cc1ccccc1)NC(=O)[C@@H](N)Cc1ccccc1)C(C)C)C(C)C)C(C)C)C(=O)N[C@@H](Cc1ccccc1)C(=O)N[C@H]1CSSC[C@@H](C(=O)O)NC(=O)[C@H](CCCCN)NC(=O)[C@H](CCCCN)NC(=O)[C@H](CO)NC(=O)[C@H]([C@@H](C)CC)NC(=O)[C@H]([C@@H](C)O)NC1=O	haemolysis	horse erythrocytes	2 h, 37 °C		HC10	13.7 µM
Clc1ccc(-c2ccccc2)cc1		female Sprague-Dawley rat, serum	inhalation, 23 µg/rat, 0 h		free thyroxine	31 ± 14 pmol/L

Repeated from above:
Substance	assay	test system	setting	scale	measurement	value
CNC(=O)c1ccc(-c2cnn3ccc(C(=O)N(C)c4ccc(Cl)c(C(=O)OC)c4)cc23)cc1		neonatal calf, infected, with diarrhoea, plasma	oral, 10 mg/kg, 0 to 12 h		AUC(0-t)	0.147 µM·h
COc1cccc2c1cc([N+](=O)[O-])c1c(C(=O)O)cc3c(c12)OCO3		Sprague-Dawley rat, male, isolated perfused kidney	50 µM, kidney A		renal clearance	0.00142 mL/min
O=C(O)C(F)(F)C(F)(F)C(F)(F)C(F)(F)C(F)(F)C(F)(F)C(F)(F)F	LC-MS	C57BL/6J mouse male, plasma	drinking water, 2 mg/L each PFAS, 12 weeks		plasma concentration	7300 ng/mL
CSCC[C@@H]1NC(=O)[C@H](CC(=O)O)NC(=O)CNC(=O)[C@H](CCCNC(=N)N)NC(=O)[C@H](C)NC(=O)[C@H](CCC(=O)O)NC(=O)[C@H](CCCNC(=N)N)NC(=O)[C@@H]2CSSC[C@@H]3NC(=O)[C@H](CO)NC(=O)[C@H]([C@@H](C)O)NC(=O)[C@@H]4CCCN4C(=O)[C@H](C)NC(=O)[C@H](Cc4c[nH]c5ccccc45)NC(=O)[C@H](CC(=O)O)NC(=O)CNC(=O)[C@H](CCCNC(=N)N)NC(=O)CNC(=O)[C@H](CCC(N)=O)NC(=O)[C@@H]4CCCN4C(=O)[C@@H](NC(=O)CNC(=O)C(C)F)CSSC[C@H](NC(=O)CNC(=O)[C@H](C)NC(=O)[C@H](CC(C)C)NC(=O)[C@H](CSSC[C@@H](C(=O)NCC(N)=O)NC(=O)[C@H]([C@@H](C)O)NC(=O)[C@H](CCCNC(=N)N)NC(=O)[C@@H]4CCCN4C1=O)NC(=O)[C@H](CC(=O)O)NC(=O)[C@H](CO)NC(=O)[C@H](CC(=O)O)NC(=O)[C@H](CCC(N)=O)NC(=O)[C@H](CO)NC3=O)C(=O)N[C@@H](C(C)C)C(=O)N2 (some centres unmarked) [fluorine-18 labelled]		nude mice U-87 MG xenograft, spleen	intravenous, 0.5 h		tissue uptake	0.88 ± 0.06 %ID/g
[123I]c1cncc(OC[C@@H]2CCN2)c1	SPECT	human, head of caudate nucleus	intravenous bolus, 7.35 mCi	relative to: tissue over plasma	tissue/plasma ratio	34
